Measured values collected from several papers.
Numbered parts are unrelated; each lists some results of a single study.
UniProt Q9UM73, sequence (whole entry, unmodified, looked up): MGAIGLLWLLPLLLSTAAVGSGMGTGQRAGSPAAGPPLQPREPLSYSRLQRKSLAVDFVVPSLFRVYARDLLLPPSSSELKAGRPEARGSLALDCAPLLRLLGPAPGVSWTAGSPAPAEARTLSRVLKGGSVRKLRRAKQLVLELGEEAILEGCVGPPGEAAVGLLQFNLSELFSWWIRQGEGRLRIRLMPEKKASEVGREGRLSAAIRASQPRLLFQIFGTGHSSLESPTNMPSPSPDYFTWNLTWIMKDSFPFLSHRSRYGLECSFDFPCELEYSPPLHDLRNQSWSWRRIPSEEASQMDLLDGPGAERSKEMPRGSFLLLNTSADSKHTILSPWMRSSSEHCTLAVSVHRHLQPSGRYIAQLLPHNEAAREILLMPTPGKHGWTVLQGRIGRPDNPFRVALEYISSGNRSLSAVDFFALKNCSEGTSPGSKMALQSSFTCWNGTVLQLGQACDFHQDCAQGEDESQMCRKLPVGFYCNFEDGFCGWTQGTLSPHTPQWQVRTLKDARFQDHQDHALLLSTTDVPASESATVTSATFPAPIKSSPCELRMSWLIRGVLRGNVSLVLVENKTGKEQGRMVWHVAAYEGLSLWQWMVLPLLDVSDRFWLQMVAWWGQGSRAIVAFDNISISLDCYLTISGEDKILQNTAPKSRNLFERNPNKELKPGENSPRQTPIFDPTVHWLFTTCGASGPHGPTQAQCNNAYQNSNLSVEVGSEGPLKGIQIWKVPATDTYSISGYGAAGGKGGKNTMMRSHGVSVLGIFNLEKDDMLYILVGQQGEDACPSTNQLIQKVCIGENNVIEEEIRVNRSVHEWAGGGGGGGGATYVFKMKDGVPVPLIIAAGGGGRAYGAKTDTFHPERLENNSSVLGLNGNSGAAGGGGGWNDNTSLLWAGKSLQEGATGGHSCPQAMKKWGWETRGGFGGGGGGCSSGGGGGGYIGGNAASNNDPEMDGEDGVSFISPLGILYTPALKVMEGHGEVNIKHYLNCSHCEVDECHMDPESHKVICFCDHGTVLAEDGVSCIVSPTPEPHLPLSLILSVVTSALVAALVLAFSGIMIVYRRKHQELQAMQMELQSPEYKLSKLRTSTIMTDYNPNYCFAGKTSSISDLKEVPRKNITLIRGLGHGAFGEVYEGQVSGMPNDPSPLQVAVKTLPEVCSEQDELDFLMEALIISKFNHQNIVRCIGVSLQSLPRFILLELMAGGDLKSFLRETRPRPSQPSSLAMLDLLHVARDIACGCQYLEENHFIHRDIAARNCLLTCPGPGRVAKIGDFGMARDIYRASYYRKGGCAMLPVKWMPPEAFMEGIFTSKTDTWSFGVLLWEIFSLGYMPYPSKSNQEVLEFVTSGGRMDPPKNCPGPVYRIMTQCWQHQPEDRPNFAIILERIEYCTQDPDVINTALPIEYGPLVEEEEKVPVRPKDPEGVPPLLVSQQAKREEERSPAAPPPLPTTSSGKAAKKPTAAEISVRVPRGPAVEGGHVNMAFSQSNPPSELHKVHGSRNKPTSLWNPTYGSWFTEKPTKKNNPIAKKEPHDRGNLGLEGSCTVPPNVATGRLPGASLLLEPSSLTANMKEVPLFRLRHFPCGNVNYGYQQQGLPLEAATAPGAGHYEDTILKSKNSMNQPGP
UniProt P07948, sequence (whole entry, looked up): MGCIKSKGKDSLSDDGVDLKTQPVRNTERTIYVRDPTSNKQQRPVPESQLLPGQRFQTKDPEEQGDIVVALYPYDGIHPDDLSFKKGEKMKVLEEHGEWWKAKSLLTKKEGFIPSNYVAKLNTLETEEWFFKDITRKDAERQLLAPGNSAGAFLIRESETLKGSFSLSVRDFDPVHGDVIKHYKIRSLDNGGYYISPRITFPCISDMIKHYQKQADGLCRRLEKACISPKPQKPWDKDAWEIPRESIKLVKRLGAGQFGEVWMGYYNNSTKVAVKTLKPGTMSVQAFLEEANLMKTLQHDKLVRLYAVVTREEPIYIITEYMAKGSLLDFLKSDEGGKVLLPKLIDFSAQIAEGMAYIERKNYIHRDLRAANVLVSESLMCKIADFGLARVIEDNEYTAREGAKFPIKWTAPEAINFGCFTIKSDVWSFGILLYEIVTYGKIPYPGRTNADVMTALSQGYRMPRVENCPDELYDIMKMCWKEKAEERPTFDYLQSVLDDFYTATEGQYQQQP
UniProt Q96Q40, sequence (whole entry, looked up): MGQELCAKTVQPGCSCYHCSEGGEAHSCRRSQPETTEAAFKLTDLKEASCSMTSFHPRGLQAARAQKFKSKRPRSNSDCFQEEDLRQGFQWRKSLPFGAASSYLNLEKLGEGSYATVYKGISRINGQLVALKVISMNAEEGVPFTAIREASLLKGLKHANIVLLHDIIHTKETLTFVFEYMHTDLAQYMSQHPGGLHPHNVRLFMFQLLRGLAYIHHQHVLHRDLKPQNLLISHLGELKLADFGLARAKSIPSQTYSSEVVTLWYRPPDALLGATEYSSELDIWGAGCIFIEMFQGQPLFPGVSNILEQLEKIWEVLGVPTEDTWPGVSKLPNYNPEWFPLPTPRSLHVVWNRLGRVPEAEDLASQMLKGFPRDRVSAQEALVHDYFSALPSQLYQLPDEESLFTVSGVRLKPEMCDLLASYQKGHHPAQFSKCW
UniProt Q92772, sequence (whole entry, looked up): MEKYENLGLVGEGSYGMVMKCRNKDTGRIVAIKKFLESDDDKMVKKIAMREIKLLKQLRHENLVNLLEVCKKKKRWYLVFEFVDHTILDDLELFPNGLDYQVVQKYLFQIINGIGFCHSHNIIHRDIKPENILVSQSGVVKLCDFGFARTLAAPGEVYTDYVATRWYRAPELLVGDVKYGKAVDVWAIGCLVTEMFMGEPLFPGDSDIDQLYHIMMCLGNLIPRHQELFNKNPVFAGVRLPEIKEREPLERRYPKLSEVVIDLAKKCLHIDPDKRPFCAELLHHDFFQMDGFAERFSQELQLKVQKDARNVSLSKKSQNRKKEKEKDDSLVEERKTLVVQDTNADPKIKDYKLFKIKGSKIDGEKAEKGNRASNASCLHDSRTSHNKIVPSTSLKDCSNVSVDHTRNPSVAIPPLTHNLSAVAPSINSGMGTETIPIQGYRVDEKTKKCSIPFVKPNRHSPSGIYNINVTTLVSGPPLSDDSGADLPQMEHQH
UniProt O14730, sequence (whole entry, looked up): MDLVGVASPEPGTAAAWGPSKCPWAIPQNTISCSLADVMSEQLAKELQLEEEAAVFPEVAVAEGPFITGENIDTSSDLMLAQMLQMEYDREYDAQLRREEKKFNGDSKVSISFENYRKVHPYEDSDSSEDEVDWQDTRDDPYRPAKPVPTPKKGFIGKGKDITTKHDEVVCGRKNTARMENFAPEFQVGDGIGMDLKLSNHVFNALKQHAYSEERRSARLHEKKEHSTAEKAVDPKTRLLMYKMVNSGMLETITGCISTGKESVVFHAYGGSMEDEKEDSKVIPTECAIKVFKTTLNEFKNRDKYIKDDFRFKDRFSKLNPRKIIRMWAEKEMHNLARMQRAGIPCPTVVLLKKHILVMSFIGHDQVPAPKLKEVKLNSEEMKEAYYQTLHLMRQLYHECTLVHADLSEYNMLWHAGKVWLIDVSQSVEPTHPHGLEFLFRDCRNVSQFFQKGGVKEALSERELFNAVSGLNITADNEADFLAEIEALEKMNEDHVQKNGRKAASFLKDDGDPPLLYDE
UniProt Q16513, sequence (whole entry, looked up): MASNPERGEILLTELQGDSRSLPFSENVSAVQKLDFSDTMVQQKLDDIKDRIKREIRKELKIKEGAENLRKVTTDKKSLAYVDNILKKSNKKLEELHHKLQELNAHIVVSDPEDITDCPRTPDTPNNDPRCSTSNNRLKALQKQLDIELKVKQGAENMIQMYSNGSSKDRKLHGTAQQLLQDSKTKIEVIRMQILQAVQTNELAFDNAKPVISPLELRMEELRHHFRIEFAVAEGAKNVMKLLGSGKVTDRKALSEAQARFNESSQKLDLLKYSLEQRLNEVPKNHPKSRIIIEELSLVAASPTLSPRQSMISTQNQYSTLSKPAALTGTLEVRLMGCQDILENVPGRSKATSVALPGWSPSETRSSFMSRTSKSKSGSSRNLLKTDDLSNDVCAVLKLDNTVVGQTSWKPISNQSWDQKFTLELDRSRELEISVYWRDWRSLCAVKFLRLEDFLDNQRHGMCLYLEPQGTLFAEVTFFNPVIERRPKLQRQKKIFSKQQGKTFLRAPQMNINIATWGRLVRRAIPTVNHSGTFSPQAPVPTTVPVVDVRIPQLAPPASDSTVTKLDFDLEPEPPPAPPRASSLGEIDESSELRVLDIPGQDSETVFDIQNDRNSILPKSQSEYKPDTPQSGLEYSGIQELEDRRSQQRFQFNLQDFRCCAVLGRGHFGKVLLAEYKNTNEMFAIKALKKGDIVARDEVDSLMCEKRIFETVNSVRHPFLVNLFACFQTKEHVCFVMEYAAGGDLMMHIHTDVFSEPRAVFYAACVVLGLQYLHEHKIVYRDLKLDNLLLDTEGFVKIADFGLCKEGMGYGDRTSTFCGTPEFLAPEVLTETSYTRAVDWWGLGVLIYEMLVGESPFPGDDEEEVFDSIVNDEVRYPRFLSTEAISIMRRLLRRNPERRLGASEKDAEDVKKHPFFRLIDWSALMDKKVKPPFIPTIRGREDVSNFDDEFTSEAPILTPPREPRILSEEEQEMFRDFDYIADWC
UniProt P52564, sequence (whole entry, looked up): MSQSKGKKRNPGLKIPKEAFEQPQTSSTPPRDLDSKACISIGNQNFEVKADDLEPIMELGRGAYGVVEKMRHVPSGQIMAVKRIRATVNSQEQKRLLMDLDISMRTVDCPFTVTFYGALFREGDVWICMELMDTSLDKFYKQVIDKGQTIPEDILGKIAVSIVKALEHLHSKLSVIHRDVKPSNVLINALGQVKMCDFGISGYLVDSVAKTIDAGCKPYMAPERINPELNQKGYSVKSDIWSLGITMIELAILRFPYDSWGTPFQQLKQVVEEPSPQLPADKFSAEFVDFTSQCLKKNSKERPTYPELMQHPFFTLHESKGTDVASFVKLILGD

Series 1
Target: Tyrosine-protein kinase ZAP-70 (ZAP70, Homo sapiens, UniProt P43403)
Effect on: enzyme activity
Action: inhibitor
Concentration: 0.5 µM
Reference: control
Target sequence (P43403 1-619): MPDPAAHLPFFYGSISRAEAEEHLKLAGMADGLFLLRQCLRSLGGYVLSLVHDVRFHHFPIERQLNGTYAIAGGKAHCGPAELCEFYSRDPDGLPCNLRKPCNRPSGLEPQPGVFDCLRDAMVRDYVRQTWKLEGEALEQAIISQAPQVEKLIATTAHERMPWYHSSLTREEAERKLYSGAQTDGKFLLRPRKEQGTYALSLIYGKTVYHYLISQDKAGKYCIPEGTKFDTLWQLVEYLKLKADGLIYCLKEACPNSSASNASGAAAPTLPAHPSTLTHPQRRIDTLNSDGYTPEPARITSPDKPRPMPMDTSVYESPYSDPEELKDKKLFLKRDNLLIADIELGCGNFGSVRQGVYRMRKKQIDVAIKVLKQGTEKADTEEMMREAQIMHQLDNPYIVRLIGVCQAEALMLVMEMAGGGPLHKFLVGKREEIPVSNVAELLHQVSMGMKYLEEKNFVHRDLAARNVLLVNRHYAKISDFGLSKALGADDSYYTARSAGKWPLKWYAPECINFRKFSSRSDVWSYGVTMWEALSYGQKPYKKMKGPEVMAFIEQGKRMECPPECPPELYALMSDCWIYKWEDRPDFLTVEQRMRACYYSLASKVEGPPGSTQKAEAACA
| Structure (SMILES) | remaining activity |
| --- | --- |
| O=C1NC(=O)c2c1c1c3ccccc3[nH]c1c1[nH]c3cc(Br)ccc3c21 | 104% |
| c1ccc2c(-c3ccncc3)c[nH]c2c1 | 105% |
| c1ccc(-c2n[nH]c3c2oc2ccccc23)cc1 | 89% |
| Cc1ccc(S(=O)(=O)/C=C/C#N)cc1 | 97.5% |
| O=C1NC(=O)c2c1c1c3ccccc3[nH]c1n1cncc21 | 87.8% |
| N#Cc1cnc2cnc(NCc3cccnc3)cc2c1Nc1ccc(F)c(Cl)c1 | 103% |
| O=Nc1c(-c2c(O)[nH]c3cc(Br)ccc23)[nH]c2ccccc12 | 107% |

Series 2
Target: TAR DNA-binding protein 43, full length, His tag (TARDBP, Homo sapiens, UniProt Q13148, residues 1-414)
Technique: RNA Bind-n-Seq
Form: RNA
Matrix: in vitro
Concentration: 20 nM
Notes: 6-mer, flanks averaged, single round
Added: 150 mM KCl
Reference: input library
Direction: higher = stronger binding
| Sequence | 6-mer enrichment (R) |
| --- | --- |
| UGGCUU | 0.717 |
| ACGGUC | 0.741 |
| GGCCGA | 1.62 |
| AGACCC | 0.668 |
| GGGACG | 4.69 |
| AAUCGU | 0.612 |
| AGAGGA | 1.66 |
| CCAGGC | 0.936 |

Series 3
SMILES: Cc1noc([C@H]2C[C@@H](c3ccc(C(F)(F)F)cc3)CN(C(=O)N3CCS(=O)(=O)C3)C2)n1
Technique: competition with immobilised ligand
Concentration: 1 µM
| target | effect on | remaining binding |
| --- | --- | --- |
| Myosin-IIIa (MYO3A, Homo sapiens, UniProt Q8NEV4) | binding | 100% |
| CSNK1E (Homo sapiens, UniProt P49674) | cell-free assay | 100% |
| FLT3 (Homo sapiens, UniProt P36888, ITD) | cell-free assay | 100% |
| MAP2K6 (Homo sapiens, UniProt P52564) | cell-free assay | 100% |
| LYN (Homo sapiens, UniProt P07948) | cell-free assay | 100% |
| PRKG2 (Homo sapiens, UniProt Q13237) | cell-free assay | 100% |
| CDKL2 (Homo sapiens, UniProt Q92772) | binding | 100% |
| ALK (Homo sapiens, UniProt Q9UM73, C1156Y) | cell-free assay | 100% |
| FLT3 (Homo sapiens, UniProt P36888, K663Q) | cell-free assay | 100% |
| CDK15 (Homo sapiens, UniProt Q96Q40) | cell-free assay | 100% |
| KDR (Homo sapiens, UniProt P35968) | cell-free assay | 100% |
| Ribosomal protein S6 kinase alpha-3, C-terminal kinase domain (RPS6KA3, Homo sapiens, UniProt P51812) | cell-free assay | 100% |
| RIOK3 (Homo sapiens, UniProt O14730) | cell-free assay | 100% |
| FLT3 (Homo sapiens, UniProt P36888) | cell-free assay | 100% |
| ABL2 (Homo sapiens, UniProt P42684) | cell-free assay | 100% |
| PKN2 (Homo sapiens, UniProt Q16513) | cell-free assay | 100% |
| WEE2 (Homo sapiens, UniProt P0C1S8) | cell-free assay | 100% |
| CDK2 (Homo sapiens, UniProt P24941) | cell-free assay | 100% |
| KIT (Homo sapiens, UniProt P10721, D816H) | cell-free assay | 100% |
| PIP4K2B (Homo sapiens, UniProt P78356) | cell-free assay | 100% |

Series 4
Host: mouse
Matrix: microsomes or S9
Concentration: 2 µM
Time: 0.5 h
| SMILES | remaining compound [%] |
| --- | --- |
| Cc1nn(-c2ccc(F)cc2)c(C)c1C1CC(=O)Nc2c1c(C)nn2-c1ncnc2[nH]cnc12 (stereo not drawn) | 42.1 |
| Cc1cc(NCCCc2nc(C(C)C)no2)nc(-c2ccc(S(C)(=O)=O)cc2)n1 | < 1 |
| CCOC(=O)c1[nH]c(=O)n(CCNC(=O)OC(C)(C)C)c1C | 46.2 |
| CCCn1cc(S(=O)(=O)N2CCC(c3nc4cnccn4c3NC(C)(C)C)CC2)c(C)n1 | 5.45 |
| COc1cc(=O)[nH]cc1C(=O)N1CCN(c2nc(C)cs2)C(C)C1 (stereo not drawn) | 91.3 |
| CC(c1ncc(-c2ccc(O)cc2)s1)C(O)(Cn1cncn1)c1ccc(F)cc1F (stereo not drawn) | 13.8 |
| O=S1(=O)N=C(N2CCOCC2)c2ccccc21 | 83.8 |
| Cc1ccc(NC(=O)N2Cc3c(sc4c3CCCC4)-n3cccc3C2C)cc1Cl (stereo not drawn) | 9.06 |
| COc1cc(=O)n(C)cc1C(=O)N1CCc2ccccc21 | 72.3 |

Further values, each from its own experiment
| Molecule | partner | technique | matrix | added | quantity | value |
| --- | --- | --- | --- | --- | --- | --- |
| CYC1 (Homo sapiens, UniProt P08574) | UQCR10 (Homo sapiens, UniProt Q9UDW1) | cross-linking MS | cells | BSPNO | cross-linked residues | K318 to A2 |

For quick reference, copied from above (series 3):
| target | effect on | remaining binding |
| --- | --- | --- |
| KDR (Homo sapiens, UniProt P35968) | cell-free assay | 100% |
| Ribosomal protein S6 kinase alpha-3, C-terminal kinase domain (RPS6KA3, Homo sapiens, UniProt P51812) | cell-free assay | 100% |
| RIOK3 (Homo sapiens, UniProt O14730) | cell-free assay | 100% |
| FLT3 (Homo sapiens, UniProt P36888) | cell-free assay | 100% |
| ABL2 (Homo sapiens, UniProt P42684) | cell-free assay | 100% |
